Results collected from several papers.
Parts stem from different laboratories: compare values within a part only.
Chain of UniProt O75914 (whole entry, looked up): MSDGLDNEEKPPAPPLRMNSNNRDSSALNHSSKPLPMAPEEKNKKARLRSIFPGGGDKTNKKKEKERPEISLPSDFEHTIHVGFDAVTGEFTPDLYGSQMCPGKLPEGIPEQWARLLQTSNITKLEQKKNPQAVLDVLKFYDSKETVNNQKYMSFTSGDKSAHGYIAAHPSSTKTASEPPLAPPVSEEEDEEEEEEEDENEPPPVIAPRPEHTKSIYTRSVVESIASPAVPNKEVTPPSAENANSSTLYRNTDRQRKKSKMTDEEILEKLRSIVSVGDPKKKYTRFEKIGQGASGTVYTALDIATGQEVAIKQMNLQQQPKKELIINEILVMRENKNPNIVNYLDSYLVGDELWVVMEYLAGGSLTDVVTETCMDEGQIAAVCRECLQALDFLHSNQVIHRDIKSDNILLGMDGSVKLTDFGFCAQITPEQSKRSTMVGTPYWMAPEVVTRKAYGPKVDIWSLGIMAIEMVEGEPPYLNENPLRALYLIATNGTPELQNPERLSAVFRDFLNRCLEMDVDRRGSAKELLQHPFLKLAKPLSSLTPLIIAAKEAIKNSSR
Chain of UniProt Q06418 (whole entry, looked up): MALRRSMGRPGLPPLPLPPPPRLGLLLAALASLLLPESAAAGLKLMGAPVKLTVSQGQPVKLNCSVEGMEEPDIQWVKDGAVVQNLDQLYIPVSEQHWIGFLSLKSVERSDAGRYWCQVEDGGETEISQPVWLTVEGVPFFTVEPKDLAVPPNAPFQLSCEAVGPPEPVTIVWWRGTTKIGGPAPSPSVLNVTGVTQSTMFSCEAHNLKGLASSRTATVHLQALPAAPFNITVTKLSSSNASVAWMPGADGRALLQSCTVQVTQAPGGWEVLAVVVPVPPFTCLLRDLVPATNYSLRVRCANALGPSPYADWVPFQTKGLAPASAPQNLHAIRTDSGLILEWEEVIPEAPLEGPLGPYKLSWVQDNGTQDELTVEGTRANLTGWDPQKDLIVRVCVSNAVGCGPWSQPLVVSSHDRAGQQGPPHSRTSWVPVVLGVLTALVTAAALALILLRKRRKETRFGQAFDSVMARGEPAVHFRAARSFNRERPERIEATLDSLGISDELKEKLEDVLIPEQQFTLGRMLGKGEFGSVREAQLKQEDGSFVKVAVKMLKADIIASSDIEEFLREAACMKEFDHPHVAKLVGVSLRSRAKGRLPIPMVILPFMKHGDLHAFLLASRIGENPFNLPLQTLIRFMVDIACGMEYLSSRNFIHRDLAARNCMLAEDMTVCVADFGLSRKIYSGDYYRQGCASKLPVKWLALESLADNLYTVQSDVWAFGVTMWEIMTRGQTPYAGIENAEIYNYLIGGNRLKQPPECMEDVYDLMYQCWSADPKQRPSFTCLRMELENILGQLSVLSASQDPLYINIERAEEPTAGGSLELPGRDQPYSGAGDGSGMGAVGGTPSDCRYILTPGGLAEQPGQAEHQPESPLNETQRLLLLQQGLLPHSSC
Chain of UniProt Q6PHR2 (whole entry, looked up): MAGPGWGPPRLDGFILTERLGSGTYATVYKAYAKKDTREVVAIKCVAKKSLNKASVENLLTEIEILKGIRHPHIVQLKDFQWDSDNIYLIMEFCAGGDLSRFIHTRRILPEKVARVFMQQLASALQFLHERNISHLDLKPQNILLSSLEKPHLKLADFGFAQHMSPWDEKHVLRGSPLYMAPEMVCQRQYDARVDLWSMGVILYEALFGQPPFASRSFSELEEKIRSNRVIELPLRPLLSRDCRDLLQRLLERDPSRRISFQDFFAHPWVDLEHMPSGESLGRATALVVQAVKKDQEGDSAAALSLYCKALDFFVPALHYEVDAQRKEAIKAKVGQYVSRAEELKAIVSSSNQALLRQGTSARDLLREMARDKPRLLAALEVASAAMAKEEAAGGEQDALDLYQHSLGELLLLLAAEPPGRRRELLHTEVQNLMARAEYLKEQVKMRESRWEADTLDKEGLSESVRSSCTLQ
Chain of UniProt O75582 (whole entry, looked up): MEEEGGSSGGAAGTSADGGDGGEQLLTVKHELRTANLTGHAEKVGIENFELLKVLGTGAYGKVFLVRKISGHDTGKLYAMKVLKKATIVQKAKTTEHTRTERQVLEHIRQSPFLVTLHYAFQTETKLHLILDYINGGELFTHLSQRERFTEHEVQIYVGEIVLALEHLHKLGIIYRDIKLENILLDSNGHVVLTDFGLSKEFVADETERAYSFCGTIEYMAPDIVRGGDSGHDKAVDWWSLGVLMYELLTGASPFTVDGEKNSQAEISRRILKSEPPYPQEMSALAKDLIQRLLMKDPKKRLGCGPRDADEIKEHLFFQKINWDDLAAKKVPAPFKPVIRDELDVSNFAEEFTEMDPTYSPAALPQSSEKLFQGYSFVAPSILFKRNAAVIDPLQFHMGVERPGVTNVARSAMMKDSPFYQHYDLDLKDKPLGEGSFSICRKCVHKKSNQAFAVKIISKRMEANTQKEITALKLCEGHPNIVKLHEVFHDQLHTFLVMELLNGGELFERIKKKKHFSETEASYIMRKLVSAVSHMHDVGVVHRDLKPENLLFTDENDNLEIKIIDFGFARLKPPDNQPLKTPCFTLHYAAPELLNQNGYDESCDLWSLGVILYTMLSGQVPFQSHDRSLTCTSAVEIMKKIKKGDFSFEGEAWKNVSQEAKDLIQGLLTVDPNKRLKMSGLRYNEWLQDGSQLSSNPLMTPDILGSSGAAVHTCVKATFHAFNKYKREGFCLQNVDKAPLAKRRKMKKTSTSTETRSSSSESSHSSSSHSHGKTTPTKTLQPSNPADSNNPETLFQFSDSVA
Chain of UniProt P23458 (whole entry, looked up): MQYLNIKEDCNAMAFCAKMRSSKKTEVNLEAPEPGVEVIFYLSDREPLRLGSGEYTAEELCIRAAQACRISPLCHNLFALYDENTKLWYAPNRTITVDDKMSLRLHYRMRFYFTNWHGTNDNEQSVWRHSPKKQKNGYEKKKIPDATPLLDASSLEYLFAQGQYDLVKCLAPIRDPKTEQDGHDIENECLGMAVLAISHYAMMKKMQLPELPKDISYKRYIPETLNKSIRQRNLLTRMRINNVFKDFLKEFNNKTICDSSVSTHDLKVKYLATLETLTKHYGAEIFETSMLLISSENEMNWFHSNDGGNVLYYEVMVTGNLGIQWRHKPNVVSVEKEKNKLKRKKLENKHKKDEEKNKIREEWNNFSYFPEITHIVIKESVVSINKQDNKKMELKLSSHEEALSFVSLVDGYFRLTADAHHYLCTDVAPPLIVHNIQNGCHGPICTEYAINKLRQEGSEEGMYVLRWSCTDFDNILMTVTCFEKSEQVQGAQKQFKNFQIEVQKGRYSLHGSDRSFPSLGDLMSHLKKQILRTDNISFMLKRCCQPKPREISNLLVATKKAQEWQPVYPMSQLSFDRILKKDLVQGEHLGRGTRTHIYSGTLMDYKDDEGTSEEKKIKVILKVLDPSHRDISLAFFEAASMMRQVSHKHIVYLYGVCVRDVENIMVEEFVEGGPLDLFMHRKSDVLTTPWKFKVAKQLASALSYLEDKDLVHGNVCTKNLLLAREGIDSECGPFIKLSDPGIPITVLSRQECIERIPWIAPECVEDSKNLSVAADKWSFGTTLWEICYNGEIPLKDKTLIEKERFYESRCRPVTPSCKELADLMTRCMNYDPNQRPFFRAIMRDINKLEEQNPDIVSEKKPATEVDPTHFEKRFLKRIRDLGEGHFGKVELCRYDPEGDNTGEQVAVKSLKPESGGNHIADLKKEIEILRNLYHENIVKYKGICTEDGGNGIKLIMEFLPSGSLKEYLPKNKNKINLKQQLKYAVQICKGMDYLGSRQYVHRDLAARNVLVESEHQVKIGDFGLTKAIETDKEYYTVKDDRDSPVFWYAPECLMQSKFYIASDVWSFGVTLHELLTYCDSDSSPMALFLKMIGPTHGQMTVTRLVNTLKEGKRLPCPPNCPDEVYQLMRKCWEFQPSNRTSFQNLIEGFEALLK
Chain of UniProt P49760 (whole entry, looked up): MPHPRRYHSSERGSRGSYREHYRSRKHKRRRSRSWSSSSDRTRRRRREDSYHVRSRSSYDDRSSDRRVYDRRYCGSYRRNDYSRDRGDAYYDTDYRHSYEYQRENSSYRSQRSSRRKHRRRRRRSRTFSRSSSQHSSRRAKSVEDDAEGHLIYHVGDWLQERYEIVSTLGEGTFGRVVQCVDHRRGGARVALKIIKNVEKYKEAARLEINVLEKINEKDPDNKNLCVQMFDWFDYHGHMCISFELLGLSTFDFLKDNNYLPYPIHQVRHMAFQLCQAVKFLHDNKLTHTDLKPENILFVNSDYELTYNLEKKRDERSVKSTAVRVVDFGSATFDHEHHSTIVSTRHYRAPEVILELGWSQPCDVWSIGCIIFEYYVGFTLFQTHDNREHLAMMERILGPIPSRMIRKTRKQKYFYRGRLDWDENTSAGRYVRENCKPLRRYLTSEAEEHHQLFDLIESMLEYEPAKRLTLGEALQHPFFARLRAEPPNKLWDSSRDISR
Chain of UniProt Q05513 (whole entry, looked up): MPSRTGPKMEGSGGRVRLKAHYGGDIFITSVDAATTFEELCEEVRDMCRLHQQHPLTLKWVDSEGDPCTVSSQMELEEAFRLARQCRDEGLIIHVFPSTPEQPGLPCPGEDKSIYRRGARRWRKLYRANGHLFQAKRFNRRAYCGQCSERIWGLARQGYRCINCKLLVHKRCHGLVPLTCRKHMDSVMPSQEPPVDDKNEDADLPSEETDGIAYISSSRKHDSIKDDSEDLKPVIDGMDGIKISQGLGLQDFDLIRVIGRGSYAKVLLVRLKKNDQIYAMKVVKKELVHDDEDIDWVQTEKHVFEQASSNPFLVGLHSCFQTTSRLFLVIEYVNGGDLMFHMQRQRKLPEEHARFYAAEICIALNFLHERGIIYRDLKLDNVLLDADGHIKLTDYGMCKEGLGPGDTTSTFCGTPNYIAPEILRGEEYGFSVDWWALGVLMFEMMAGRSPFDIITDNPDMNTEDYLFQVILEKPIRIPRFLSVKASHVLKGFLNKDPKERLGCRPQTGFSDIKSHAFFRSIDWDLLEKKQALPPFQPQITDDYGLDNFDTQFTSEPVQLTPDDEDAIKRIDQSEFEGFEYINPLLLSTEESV

Block 1
Host: mouse
Matrix: microsomes or S9
Tested at: 2 µM
Time: 0.5 h
| SMILES | remaining compound [%] |
| --- | --- |
| CN(C(=O)CN1CCC(NC(=O)C2CCCCC2)CC1)C1CCCCC1 | 0.555 |
| COc1cc(C(=O)N2CCCCCC2)c(N(C)S(C)(=O)=O)cc1OC | 15.5 |
| COc1ccccc1Nc1cnnc2c(Cl)cccc12 | 14.7 |
| CC(=O)c1cc(CN2CCOCC2CC(=O)NCCc2ncnn2C)cs1 (stereo not shown) | 94.9 |
| CCOP(=O)(Cc1ccc(-c2ccccc2OC)cn1)OCC | 0.477 |

Block 2
Cell line: mouse MPNST tumor cells
Method: high-content nuclear imaging
Measured: cell number
Tested at: 10 µM
Time: 12 h
Notes: mean of 2 replicates
Baseline: plate mean
Reading: higher = more cells
| Structure (SMILES) | nuclei count [z-score] |
| --- | --- |
| Cc1cccc(Nc2cc(Cl)nc(SCC(=O)O)n2)c1C | 1.71 |
| CC(NCCc1ccc(O)cc1)C(O)c1ccc(O)cc1 (stereo not shown) | 0.505 |
| CC=CC(=O)N(CC)c1ccccc1C | 0.452 |
| CNc1ncnc2c1ncn2C1OC(CO)C(O)C1O (stereo not shown) | -1.56 |
| COc1ccccc1O | -0.498 |

Block 3
Structure (SMILES): Nc1ncnc2n[nH]c(Nc3ccc(F)cc3)c12
Read-out: enzyme activity
Mode: inhibitor
Tested at: 0.5 µM
Baseline: control
| target | remaining activity |
| --- | --- |
| SRSF protein kinase 1 (SRPK1, Homo sapiens, UniProt Q96SB4) | 104% |
| Tyrosine-protein kinase JAK1 (JAK1, Homo sapiens, UniProt P23458) | 99% |
| Dual specificity protein kinase CLK2 (CLK2, Homo sapiens, UniProt P49760) | 92.4% |
| Tyrosine-protein kinase receptor TYRO3 (TYRO3, Homo sapiens, UniProt Q06418) | 100% |
| Muscle, skeletal receptor tyrosine-protein kinase (MUSK, Homo sapiens, UniProt O15146) | 93.9% |
| Serine/threonine-protein kinase PAK 6 (PAK6, Homo sapiens, UniProt Q9NQU5) | 109% |
| Calcium/calmodulin-dependent protein kinase type 1 (CAMK1, Homo sapiens, UniProt Q14012) | 103% |
| Protein kinase C zeta type (PRKCZ, Homo sapiens, UniProt Q05513) | 109% |
| Calcium/calmodulin-dependent protein kinase kinase 1 (CAMKK1, Homo sapiens, UniProt Q8N5S9) | 101% |
| Ephrin type-A receptor 6 (EPHA6, Homo sapiens, UniProt Q9UF33) | 49.3% |
| Casein kinase I isoform delta (CSNK1D, Homo sapiens, UniProt P48730) | 67.7% |
| Cyclin-dependent kinase 2, with cyclin E (CDK2, Homo sapiens, UniProt P24941) | 90.3% |
| Mitogen-activated protein kinase kinase kinase 20 (MAP3K20, Homo sapiens, UniProt Q9NYL2) | 88% |
| Insulin-like growth factor 1 receptor (IGF1R, Homo sapiens, UniProt P08069) | 104% |

Block 4
SMILES: CN(c1ccnc(CNc2nc(Nc3ccc4c(c3)CC(=O)N4)ncc2C(F)(F)F)n1)S(C)(=O)=O
Read-out: cell-free assay
Method: competition with immobilised ligand
Tested at: 1 µM
| target | remaining binding [%] |
| --- | --- |
| Serine/threonine-protein kinase mTOR (MTOR, Homo sapiens, UniProt P42345) | 94 |
| Epidermal growth factor receptor (EGFR, Homo sapiens, UniProt P00533) | 74 |
| Ribosomal protein S6 kinase alpha-5, N-terminal kinase domain (RPS6KA5, Homo sapiens, UniProt O75582) | 96 |
| Serine/threonine-protein kinase PAK 3 (PAK3, Homo sapiens, UniProt O75914) | 88 |
| Serine/threonine-protein kinase ULK3 (ULK3, Homo sapiens, UniProt Q6PHR2) | 25 |
| Tyrosine-protein kinase receptor UFO (AXL, Homo sapiens, UniProt P30530) | 21 |
| Ribosomal protein S6 kinase alpha-1, N-terminal kinase domain (RPS6KA1, Homo sapiens, UniProt Q15418) | 100 |
